Measured values pooled from the literature.
Lines come from different studies, so protocols differ. “And” joins repeats or separate records; there may be more than shown. Numbers after ± are the reported error.

| SMILES | cell line | assay | system | setting | scale | quantity | result |
| --- | --- | --- | --- | --- | --- | --- | --- |
| Cl.NCc1ccc2c(c1)CN(C1CCC(=O)NC1=O)C2=O (stereo not shown) | JHH7 | CellTiter-Glo |  | concentration not given, 72 h |  | minimum viability | 32.3% and < 50% |
| Cc1cc(C)nc(NC(=S)N2CCN(c3ccncc3)CC2)c1 | SK-MEL-2 | cell viability, CellTiter-Glo |  | 4 days |  | EC50 | > 100 µM |
| NCc1ccc(CNC(=O)c2cc(-c3ccccc3)n(-c3ccccc3)n2)cc1 | HeLa | cell growth or viability |  |  |  | CC50 | > 50 µM |
| O=CCNCCOn1c(=O)n(OCCNCCO)c(=O)n(OCCNCCOn2c(=O)n(OCCNCCO)c(=O)n(OCCNCCO)c2=O)c1=O | HUVEC | cell growth or viability, MTT |  | 72 h |  | IC50 | 3.1 µg/mL |
| Cc1ccc(-n2nc(C(N)=O)cc2-c2ccc(CC(C)C)cc2)cc1 | HeLa | cell growth or viability |  |  |  | CC50 | 34 µM |
| CCC(=CCc1c(O)cc2c(c1O)C(=O)CC(c1cc(O)ccc1OC)O2)CC (stereo not shown) | HeLa | cytotoxicity, MTT |  | 48 h, added: S9 fraction |  | log IC50 | 1.47 log µM |
| CC(C)CC(OC1OC(CO)C(O)C(OC(=O)C=Cc2ccccc2)C1O)(C(=O)OCc1ccc(OC2OC(CO)C(O)C(O)C2O)cc1)C(O)C(=O)OCc1ccc(OC2OC(CO)C(O)C(O)C2O)cc1 (stereo not shown) | HaCaT | cytotoxicity, MTT |  | 48 h, 10% FBS |  | IC50 | > 200 µM |
| COc1cc(/C=C/C=C2\SC(=S)NC2=O)ccc1O | HEK-293T | CellTiter-Glo |  | 20 µM, 24 h, unit not given | reference: untreated | viability | 0.999 and 0.976 |
| N=C(N)Nc1ccc(CNC(=O)c2cc(-c3ccccc3)n(-c3ccccc3)n2)cc1 | HeLa | cell growth or viability |  |  |  | CC50 | > 50 µM |
| NC[C@H]1O[C@H](O[C@H]2[C@H](O)[C@@H](O[C@H]3O[C@H](Cn4cc(CNC(=S)Nc5ccc6c(c5)C(=O)OC65c6ccc(O)cc6Oc6cc(O)ccc65)nn4)[C@@H](O)[C@H](N)[C@H]3O)[C@H](N)C[C@@H]2N)[C@H](O)[C@@H](O)[C@@H]1O | MCF7 |  |  | 5 µM, 24 h |  | cytotoxicity | 5 ± 0.8% |
| CN1CCCNC(=O)c2cccc(c2)C(=O)NCCCN(C)CCCNc2cccc3c2C(=O)c2cccc(c2C3=O)NCCC1 | HeLa | cell growth or viability, CCK-8 |  | 0.15 µM, 48 h |  | viability | 66.3% |
| N=C(N)NCCC[C@@H]1NC(=O)[C@H](CCCNC(=N)N)NC(=O)[C@@H](C(c2ccccc2)c2ccccc2)NC(=O)[C@H](Cc2c[nH]c3ccccc23)NC(=O)[C@@H](C(c2ccccc2)c2ccccc2)NC(=O)[C@@H](CCCNC(=N)N)NC(=O)[C@@H](CCCNC(=N)N)NC1=O | MRC5 | cell growth or viability, MTS |  | 100 µg/mL, 24 h |  | viability | > 90% |
| CC(C)C[C@@H]1NC(=O)[C@H](CO)NC(=O)[C@H](CC(=O)O)NC(=O)[C@@H]2CCCN2C(=O)[C@H]2CCCN2C(=O)[C@H](C(C)C)NC(=O)[C@H](CC(=O)O)NC(=O)[C@H](CC(N)=O)NC(=O)[C@H](CCCNC(=N)N)NC(=O)[C@H]([C@@H](C)O)NC(=O)[C@H](C(C)C)NC(=O)CCNC(=O)CCNC(=O)[C@H](Cc2ccccc2)NC(=O)[C@H](C(C)C)NC(=O)[C@H](CC(C)C)NC1=O | HEK-293T | subcellular fractionation LC-MS | nuclear fraction | 20 µM, 2 h |  | concentration | not detected |
| Cc1onc(-c2ccc(F)cc2)c1C(=O)Nc1cccc(C(N)=O)c1 | HeLa | cell growth or viability |  |  |  | CC50 | > 50 µM |
| Cc1cc(=O)c2c(O)c3c(O[C@@H]4O[C@H](CO)[C@@H](O)[C@H](O)[C@H]4O)cc(O)cc3cc2o1 | HepaRG co-cultured with HK-2 | MTT |  | 16.67 µM, 24 h | reference: untreated control | cell viability | 102 ± 13.7% |
| CCNc1cc2c(cc1C)C1(c3cc(C)c(NCC)cc3O2)c2ccccc2C(=O)N1N=Cc1c[c-]c(-c2ccccn2)cc1.Cc1c(C)c(-c2ccc(-c3ccccc3)cc2)[c-](C)c1C.[Cl-].[Ir+3] | A549 | annexin V/PI flow cytometry |  | 3.0×IC50, 24 h |  | viable cells | 2.59 ± 0.29% |
| N#Cc1ccc(CNC(=O)c2cc(-c3ccccc3)n(-c3ccccc3)n2)cc1 | HeLa | cell growth or viability |  |  |  | CC50 | > 50 µM |
| O=C(OCc1ccc(O[C@@H]2O[C@H](CO)[C@@H](O)[C@H](O)[C@H]2O)cc1)c1ccc(O)cc1 | HaCaT | cytotoxicity, MTT |  | 48 h, 10% FBS |  | IC50 | > 200 µM |
| O=C(Nc1cccc(CNc2ncccn2)c1)c1cc(-c2ccccc2)n(-c2ccccc2)n1 | HeLa | cell growth or viability |  |  |  | CC50 | > 100 µM |
| CC(=O)N[C@H](C(=O)N[C@H](C(=O)N[C@@H](CCCNC(=N)N)C(=O)N[C@@H](CC(N)=O)C(=O)N[C@@H](CC(=O)O)C(=O)N[C@H](C(=O)N1CCC[C@@H]1C(=O)N1CCC[C@H]1C(=O)N[C@@H](CC(=O)O)C(=O)N[C@@H](CO)C(=O)N[C@@H](CC(C)C)C(=O)N[C@@H](CC(C)C)C(=O)N[C@H](C(=O)N[C@@H](Cc1ccccc1)C(N)=O)C(C)C)C(C)C)[C@@H](C)O)C(C)C | HEK-293T | subcellular fractionation LC-MS | nuclear fraction | 20 µM, 24 h |  | peptide amount | not detected |
| O=C(c1cc(-c2ccccc2)n(-c2ccccc2)n1)N1CCN(Cc2ccccn2)CC1 | HeLa | cell growth or viability |  |  |  | CC50 | > 100 µM |
| O=C1NC2(CC2)COc2ncc(F)cc2[C@H]2COCCN2c2ccn3ncc1c3n2 | CHL |  |  | 5 µg/mL, 24 h, without S9 |  | numerical aberrations | 0% |

Excerpt of the above:
| SMILES | cell line | assay | system | setting | scale | quantity | result |
| --- | --- | --- | --- | --- | --- | --- | --- |
| N=C(N)Nc1ccc(CNC(=O)c2cc(-c3ccccc3)n(-c3ccccc3)n2)cc1 | HeLa | cell growth or viability |  |  |  | CC50 | > 50 µM |
